{"data": "Assay results from different studies", "UCHL1": "Ubiquitin carboxyl-terminal hydrolase isozyme L1 (UCHL1, Homo sapiens, UniProt P09936)", "note": "Lines come from different studies, so protocols differ. ± marks the error that the study gave.", "chain of UniProt P09936 (whole entry, looked up)": "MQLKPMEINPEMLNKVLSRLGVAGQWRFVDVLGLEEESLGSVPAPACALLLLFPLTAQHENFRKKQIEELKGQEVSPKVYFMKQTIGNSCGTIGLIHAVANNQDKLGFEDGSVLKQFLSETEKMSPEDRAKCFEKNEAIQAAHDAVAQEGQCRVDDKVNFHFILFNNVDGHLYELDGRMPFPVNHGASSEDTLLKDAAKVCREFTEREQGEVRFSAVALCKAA"}
{"SMILES": "CC/C(=C(\\c1ccccc1)c1ccc(OCCN(C)C)cc1)c1ccccc1", "tested on": "MCF7", "assay": "RNA-seq, item: GREB1 mRNA", "conditions": "1 µM, 24 h, E2-induced gene", "scale": "reference: DMSO vehicle", "endpoint": "log2 fold change", "result": -3.65}
{"SMILES": "Cc1cc(C)n(-c2nc(-c3ccc(Cl)cc3)c3c(NC(=O)c4ccccc4)nnc-3[nH]2)n1", "tested on": "MCF7", "assay": "SRB", "conditions": "10 µM, NCI60 single-dose screen", "scale": "reference: untreated", "endpoint": "cell growth", "result": "88.2%"}
{"SMILES": "C=CC(=O)c1cccnc1Nc1cc(C(F)(F)F)ccc1OC", "tested on": "MCF7", "assay": "firefly luciferase reporter", "conditions": "25 µM, 6 h", "scale": "reference: vehicle", "endpoint": "TEAD reporter activity", "result": "86.8 ± 7.2%"}
{"SMILES": "CC(=O)c1nn(-c2ccc(Cl)cc2)/c(=N/N=C(\\C)c2ccc(NC(=O)c3ccc(Cl)cc3)cc2)s1", "tested on": "MCF7", "conditions": "10 µM", "endpoint": "toxicity", "result": "77.5%"}
{"SMILES": "CC[C@@H](C)[C@H](NC(=O)c1cc(Cl)ccc1OCCNC(=O)OC(C)(C)C)C(=O)Nc1ccc([N+](=O)[O-])cc1Cl", "tested on": "MCF7", "conditions": "up to 10 µM, 72 h", "endpoint": "antiproliferative activity", "result": "inactive"}
{"SMILES": "CCC(=O)c1cccnc1Nc1cccc(C(F)(F)F)c1", "tested on": "MCF7", "assay": "firefly luciferase reporter", "conditions": "50 µM, 6 h", "scale": "reference: vehicle", "endpoint": "TEAD reporter activity", "result": "86.8 ± 4.8%"}
{"SMILES": "CC(=O)c1nn(-c2ccc(C)cc2)/c(=N/N=C(\\C)c2ccc(NC(=O)c3ccccc3)cc2)s1", "tested on": "MCF7", "assay": "MTT", "conditions": "0.625 µM", "endpoint": "cytotoxicity", "result": "95.2%"}
{"SMILES": "C=CC(=O)c1cccnc1Nc1cc(Cl)ccc1OC", "tested on": "MCF7", "assay": "firefly luciferase reporter", "conditions": "100 µM, 6 h", "scale": "reference: vehicle", "endpoint": "TEAD reporter activity", "result": "2.1 ± 0.3%"}
{"SMILES": "C[C@@H]1CC[C@@H]([C@@](O)(CNCc2cccc3ccccc23)COCc2ccccc2)[C@H](OCc2ccccc2)C1", "tested on": "MCF7", "assay": "cell growth, inhibitor, MTT", "conditions": "72 h", "endpoint": "IC50", "result": "5.67 µM"}
{"SMILES": "N#CC(=Cc1cccc(Cl)c1Cl)C(=O)NCc1ccccc1", "tested on": "UCHL1", "assay": "covalent, intact protein LC-MS", "conditions": "12.5 µM", "endpoint": "labelling", "result": "44.6%"}
{"SMILES": "C=C1CN(S(=O)(=O)c2ccc(OC)cc2)CCCN(CC2CCCCC2)CCCN(S(=O)(=O)c2ccc(N(C)C)cc2)C1.Cl", "tested on": "MCF7", "conditions": "1 µM, 48 h, together with: progranulin 1 µg/mL", "endpoint": "mammosphere formation", "result": "inhibited"}
{"SMILES": "O=[N+]([O-])c1ccc(O)c(C=NNc2ccc(Br)cc2)c1", "tested on": "MCF7", "assay": "Muse cell cycle", "conditions": "IC50, 24 h", "endpoint": "cells in S phase", "result": "18.8%"}
{"SMILES": "COc1ccc(-n2nc(C(C)=O)s/c2=N\\N=C(/C)c2ccc(NC(=O)c3ccc(C)cc3)cc2)cc1", "tested on": "MCF7", "conditions": "0.312 µM", "endpoint": "toxicity", "result": "82.3%"}
{"SMILES": "COc1ccc(C(F)(F)F)cc1Nc1ncccc1C(=O)O", "tested on": "MCF7", "assay": "firefly luciferase reporter", "conditions": "50 µM, 6 h", "scale": "reference: vehicle", "endpoint": "TEAD reporter activity", "result": "84.9 ± 6.3%"}
{"SMILES": "CCOC(=O)c1nn(-c2cccc(Cl)c2)/c(=N/N=C(\\C)c2ccc(NC(=O)c3ccc(Cl)cc3)cc2)s1", "tested on": "MCF7", "assay": "MTT", "conditions": "10 µM", "endpoint": "cytotoxicity", "result": "96.3%"}
{"SMILES": "CC(C)(C)c1ccc(CN2CCN(C(c3ccccc3)c3ccc(Cl)cc3)CC2)cc1 (stereo not shown)", "tested on": "MCF7", "conditions": "72 h", "endpoint": "EC50", "result": "19.1 ± 1.45 µM"}
{"SMILES": "COC(=O)c1c(C(=O)CCl)c(C)n(C2CC2)c1C", "tested on": "UCHL1", "assay": "covalent, intact protein LC-MS", "conditions": "12.5 µM", "endpoint": "labelling", "result": "6.27%"}
{"SMILES": "CCOC(=O)c1nn(-c2cccc(Cl)c2)/c(=N/N=C(\\C)c2ccc(NC(=O)c3ccccc3)cc2)s1", "tested on": "MCF7", "assay": "MTT", "conditions": "0.156 µM", "endpoint": "cytotoxicity", "result": "40.8%"}
{"SMILES": "O=C1NC(c2ccccc2)(c2ccccc2)C(=O)N1Cc1cn(-c2c3ccccc3nc3ccccc23)nn1", "tested on": "MCF7", "assay": "NCI60 single-dose screen", "conditions": "10 µM", "endpoint": "growth percentage", "result": "73.9%"}
{"SMILES": "CC(=NN=C1SC(C)C(=O)N1C)c1c(O)c2ccccc2oc1=O (stereo not shown)", "tested on": "MCF7", "assay": "cell growth, MTT", "scale": "reference: IC50 BJ-1 over MCF7", "endpoint": "selectivity index", "result": "> 3.83"}
{"SMILES": "COc1ccc(-n2nc(C(C)=O)s/c2=N\\N=C(/C)c2ccc(NC(=O)c3ccccc3)cc2)cc1", "tested on": "MCF7", "conditions": "0.625 µM", "endpoint": "toxicity", "result": "97.3%"}
{"SMILES": "CCCCN1CCN(c2ccc3nc(-c4ccc5nc(-c6cc(OC)ccc6OC)[nH]c5c4)[nH]c3c2)CC1", "tested on": "MCF7", "assay": "SRB", "conditions": "10 µM, 48 h", "endpoint": "growth percent", "result": "82.4%"}
{"SMILES": "CCn1c(C)c(C(C)=O)sc1=NN=C(C)c1c(O)c2ccccc2oc1=O", "tested on": "MCF7", "assay": "cell growth, MTT", "scale": "reference: IC50 BJ-1 over MCF7", "endpoint": "selectivity index", "result": "> 2.97"}
{"SMILES": "C=CC(=O)N1CCC(COCC(=O)N2CCN(c3nc(-c4cnc(N)nc4C(F)F)nc(N4CCOC[C@@H]4C)n3)CC2)CC1", "tested on": "MCF7", "assay": "western blot, item: phospho-PKB/Akt Ser473", "conditions": "2 h", "endpoint": "IC50", "result": "0.0082 µM"}
{"SMILES": "OCc1ccc(Nc2ccc3c(Nc4cccc(C(F)(F)F)c4)ncnc3c2)cc1", "tested on": "MCF7", "conditions": "IC50, 24 h", "endpoint": "G2/M phase cells", "result": "28.6%"}
